Results gathered from unrelated publications.
Compare with care: the assays were run in different laboratories. Several values in a cell are separate wells, animals, samples, runs or records. ± gives the spread as reported. ≈ marks a conversion by molar mass, not a printed value.

The IC50 of COc1ccc2cc1Oc1ccc(cc1)C[C@H]1c3cc(c(OC)cc3CCN1C)Oc1c(O)c(OC)cc3c1[C@H](C2)N(C)CC3 is reported as 4.45 ± 1 µM (Influenza A virus; viral replication; MDCK, A/HanFang/359/95 (H3N2); 48 h).
CCOC(=O)C1=C[C@@H](OC(CC)CC)[C@H](NC(C)=O)[C@@H](N)C1 — result for “lung virus yield”: 11% (Influenza A virus; A/NWS/33 (H1N1), mouse, lung; oral, 0.2 mg/mouse/day, day 3; baseline: untreated infected control).
With CC(C)[C@H](NC(=O)c1ccccc1NC(=O)c1ccccn1)C(=O)N[C@H](CO)C(C)C the EC50 was greater than 50 µM (human coronavirus 229E; viral replication, plaque reduction; MRC-5; 6 days).
For Nc1c(C(=O)N2CCOCC2)sc2nc(Cl)ccc12, IC90 read “inactive” (Mycobacterium tuberculosis; H37Rv wild type; 120 h).
CCOC(=O)C1=C[C@@H](OC(CC)CC)[C@H](NC(C)=O)[C@@H](N)C1 has a selectivity index of greater than 46.1 (Influenza A virus; MDCK, A/WSN/1933 (H1N1); baseline: CC50 over EC50).
Cc1nc(OCCc2cc(F)cc(F)c2)c(C(=O)NC(C)C)s1 gave a selectivity index of 0.2 (Mycobacterium tuberculosis; H37Rv-LP; baseline: HepG2 CC50 over Mtb IC90).
For COc1nc(N)nc2c1ncn2[C@@H]1O[C@H](CO)[C@@H](O)[C@@H]1O, anti-influenza activity read “inactive” (Influenza A virus H1N1; ELISA of viral NP; MDCK; 50 µM).
Nc1ncnc2c1ncn2[C@@H]1O[C@H](CO)C[C@H]1O gave a virus titre of 50000 TCID50/mL and 34100 TCID50/mL (human coronavirus 229E; Huh-7; concentration not given).
For CC(C)[C@H](NC(=O)c1ccccc1NC(=O)c1ccccc1)C(=O)N[C@H](CO)C(C)C, the EC50 was greater than 50 µM (human coronavirus 229E; viral replication, plaque reduction; MRC-5; 6 days).
The EC50 of NC(=O)c1ncn([C@@H]2O[C@H](CO)[C@@H](O)[C@H]2O)n1 is reported as 18 ± 2 µM (human coronavirus 229E; viral replication; Huh7.5).
With COc1ccc(-c2cc(C(F)(F)F)c3c(N)c(C(=O)NC4CC5(C4)CN(C(=O)OC(C)(C)C)C5)sc3n2)cc1 the selectivity index was less than 1 (Mycobacterium tuberculosis; H37Rv wild type; baseline: HepG2 IC50 over M. tuberculosis IC90).
COc1ccc2[nH]c(=S)n(Cc3cccnc3)c(=O)c2c1 has an MIC90 of 5.92 µM (≈ 1.77 µg/mL) (Mycobacterium tuberculosis; PptT conditional knockdown).
For Cc1nc(OCCc2cc(F)cc(F)c2)c(C(=O)NC2CCCC2)s1, the IC90 was 46 ± 35 µM (Mycobacterium tuberculosis; growth; H37Rv-LP; 120 h).
Nc1c(C(=O)N2CC(F)(F)C2)sc2ncccc12 has an IC50 of greater than 100 µM (Mycobacterium tuberculosis; growth inhibition; H37Rv LepB under-expressing).
For Cc1nc(NCCCCNc2ccnc3cc(Cl)ccc23)nc(-c2ccccc2[N+](=O)[O-])c1C(=O)OC(C)C, the EC50 was greater than 20 µM (parainfluenza virus 3; viral replication; Vero).
Under IC90, COc1ccc(-c2cc(C(F)(F)F)c3c(N)c(C(=O)Nc4ccc(C)c(C)c4)sc3n2)cc1 is recorded as “inactive” (Mycobacterium tuberculosis; H37Rv wild type; 120 h).
CC(=O)OCc1cc2[nH]c(=S)n(Cc3cccnc3)c(=O)c2cc1Cl has an MIC90 of 0.25 µM (Mycobacterium tuberculosis; PptT conditional knockdown).
For OC(Cn1cncn1)(Cn1cncn1)c1ccc(F)cc1F, the relative growth was 1.24% and 2.06% and 1.21% (Saccharomyces cerevisiae; OD600; ΔPdr5 expressing Cdr1; 10 µg/mL; baseline: no-drug control).
With CC(C)(O)c1ccc(OCCc2cccc(F)c2)c(C(N)=O)c1 the selectivity index was greater than 3 (Mycobacterium tuberculosis; H37Rv-LP; baseline: HepG2 CC50 over Mtb IC90).
CC1(C)S[C@@H]2[C@H](NC(=O)[C@H](N)c3ccc(O)cc3)C(=O)N2[C@H]1C(=O)O has an MIC of greater than 256 µg/mL (Burkholderia cepacia; 6349).
The reporter activity of NC(=O)c1nc(F)c[nH]c1=O is reported as 94.6% (lymphocytic choriomeningitis virus; reporter gene; BHK-21; 50 µM, minigenome, Gaussia luciferase; baseline: DMSO).
For COCCNC(=O)c1cc(-c2ccoc2)ccc1OCCc1cccc(F)c1, the selectivity index was greater than 2 (Mycobacterium tuberculosis; H37Rv-LP; baseline: HepG2 CC50 over Mtb IC90).
CC[C@H](C)[C@H](NC(=O)[C@H](C)NC(=O)[C@H](CCCNC(=N)N)NC(=O)[C@H](CCCNC(=N)N)NC(=O)[C@H](CCCNC(=N)N)NC(=O)[C@H](CCCNC(=N)N)NC(=O)[C@H](CCCNC(=N)N)NC(=O)[C@@H](N)CCCNC(=N)N)C(=O)N[C@@H](CO)C(=O)NCC(=O)N[C@@H](CO)C(=O)N[C@@H](CC(C)C)C(=O)N[C@H](C(=O)N[C@H](C(=O)N[C@@H](CC(C)C)C(=O)N[C@@H](Cc1ccccc1)C(=O)NCC(=O)N[C@@H](Cc1ccc(O)cc1)C(N)=O)[C@@H](C)O)C(C)C has an MIC of 2 to 8 µM (Gram-negative ESKAPE bacteria; range over Gram-negative species).
With COc1ccc(-c2cc(C(F)(F)F)c3c(N)c(C(=O)N4CC5(CCOC5)C4)sc3n2)cc1 the selectivity index was less than 1 (Mycobacterium tuberculosis; H37Rv wild type; baseline: HepG2 IC50 over M. tuberculosis IC90).
With CCOC(=O)c1c(C)nc(NCCNc2ccnc3cc(Cl)ccc23)nc1-c1ccccc1 the EC50 was greater than 4 µM (parainfluenza virus 3; viral replication; Vero).
With CC(c1cncnc1)n1c(=S)[nH]c2ccc(Cl)cc2c1=O (stereo not shown) the MIC90 was no less than 100 µM (Mycobacterium tuberculosis; H37Rv).
COc1c(N2C[C@@H]3CCCN[C@@H]3C2)c(F)cc2c(=O)c(C(=O)O)cn(C3CC3)c12 gave an MIC of 0.02 µM (Mycobacterium chelonae; ATCC 35752).
The MIC90 of CC(C)c1ccc(Cn2c(=S)[nH]c3ccc(Cl)cc3c2=O)cn1 is reported as 8.35 µM (≈ 2.89 µg/mL) (Mycobacterium tuberculosis; PptT conditional knockdown).
C[C@@H](O)[C@H]1C(=O)N2C(C(=O)O)=C(S[C@@H]3CN[C@H](C(=O)N(C)C)C3)[C@H](C)[C@H]12 has an MIC of 2 µg/mL (Burkholderia cepacia; 6349).
With O=c1c2ccncc2[nH]c(=S)n1Cc1cccnc1 the MIC90 was 4.95 µM (≈ 1.34 µg/mL) (Mycobacterium tuberculosis; PptT conditional knockdown).
O=C(O)C1=CC(=C(c2ccc(O)c(C(=O)O)c2)c2ccc(O)c(C(=O)O)c2)C=CC1=O has a reporter activity of 168% (lymphocytic choriomeningitis virus; reporter gene; BHK-21; 100 µM, minigenome, Gaussia luciferase; baseline: DMSO).
With COc1ccc(-c2cc(C(F)(F)F)c3c(N)c(C(=O)Nc4cccc(C)c4C)sc3n2)cn1 the IC50 was 0.5 ± 0.2 µM (Mycobacterium tuberculosis; growth inhibition; H37Rv LepB under-expressing).
With CNC(=O)c1cc(C(F)F)ccc1OCCc1cccc(F)c1 the selectivity index was 30 (Mycobacterium tuberculosis; H37Rv-LP; baseline: HepG2 CC50 over Mtb IC90).
For CCOC(=O)c1c(C)nc(NCCCCNc2ccnc3cc(Cl)ccc23)nc1C, the EC50 was greater than 20 µM (parainfluenza virus 3; viral replication; Vero).
For COc1ccc(-c2cc(C(F)(F)F)c3c(N)c(C(=O)Nc4c(C)cccc4C)sc3n2)cc1, the IC50 was greater than 100 µM (Mycobacterium tuberculosis; growth inhibition; H37Rv LepB under-expressing).
For O=c1c2cc(Cl)ccc2[nH]c(=S)n1Cc1cncc(-c2nnn[nH]2)c1, the MIC90 was 12 µM (≈ 4.46 µg/mL) (Mycobacterium tuberculosis; PptT conditional knockdown).
With Cc1nc(-c2ccc(OCCc3cccc(F)c3)c(C(N)=O)c2)cs1 the selectivity index was 11 (Mycobacterium tuberculosis; H37Rv-LP; baseline: HepG2 CC50 over Mtb IC90).
COc1ccc2cc1Oc1ccc(cc1)C[C@H]1c3cc(c(OC)cc3CCN1C)Oc1c(OC)c(OC)cc3c1[C@H](C2)N(C)CC3 gave an IC50 of 4.1 ± 0.69 µM (Influenza A virus; viral replication; MDCK, A/Fort Monmouth/1/1947 (H1N1); 48 h).
With Cc1cscc1-c1ccc(OCCc2cccc(F)c2)c(C(N)=O)c1 the selectivity index was 26 (Mycobacterium tuberculosis; H37Rv-LP; baseline: HepG2 CC50 over Mtb IC90).
For CC(c1cccnc1)n1c(=S)[nH]c2ccc(Cl)cc2c1=O (stereo not shown), the IC80 was greater than 30 µM (Mycobacterium tuberculosis; THP-1 macrophages, H37Rv-GFP; 96 h).
For COc1ccc(-c2cc(C(F)(F)F)c3c(N)c(C(=O)N4CC(C)OC(C)C4)sc3n2)cc1 (stereo not shown), the selectivity index was less than 1 (Mycobacterium tuberculosis; H37Rv wild type; baseline: HepG2 IC50 over M. tuberculosis IC90).
For O=c1c2ccc(Cl)cc2[nH]c(=S)n1Cc1cccnc1, the MIC90 was greater than 100 µM (Mycobacterium tuberculosis; PptT conditional knockdown).
CNC(=O)c1cc(C)ccc1OCCc1ccc(Br)cc1 gave an IC90 of 0.33 µM (Mycobacterium tuberculosis; growth; H37Rv-LP; 120 h).

A few entries again:
With CNC(=O)c1cc(C(F)F)ccc1OCCc1cccc(F)c1 the selectivity index was 30 (Mycobacterium tuberculosis; H37Rv-LP; baseline: HepG2 CC50 over Mtb IC90).
The EC50 of NC(=O)c1ncn([C@@H]2O[C@H](CO)[C@@H](O)[C@H]2O)n1 is reported as 18 ± 2 µM (human coronavirus 229E; viral replication; Huh7.5).
C[C@@H](O)[C@H]1C(=O)N2C(C(=O)O)=C(S[C@@H]3CN[C@H](C(=O)N(C)C)C3)[C@H](C)[C@H]12 has an MIC of 2 µg/mL (Burkholderia cepacia; 6349).
With CC(c1cncnc1)n1c(=S)[nH]c2ccc(Cl)cc2c1=O (stereo not shown) the MIC90 was no less than 100 µM (Mycobacterium tuberculosis; H37Rv).
CNC(=O)c1cc(C)ccc1OCCc1ccc(Br)cc1 gave an IC90 of 0.33 µM (Mycobacterium tuberculosis; growth; H37Rv-LP; 120 h).
